# Measured values from different studies.
# Every numbered part comes from another study and shows a few of its results, in no order. Positions count from the first letter of the parent shown.

# Block 1
# Target: Centromere-binding protein 1, full length, His-tagged (CBF1, Saccharomyces cerevisiae, UniProt P17106, residues 1-351)
# Chain of UniProt P17106 (whole entry, looked up): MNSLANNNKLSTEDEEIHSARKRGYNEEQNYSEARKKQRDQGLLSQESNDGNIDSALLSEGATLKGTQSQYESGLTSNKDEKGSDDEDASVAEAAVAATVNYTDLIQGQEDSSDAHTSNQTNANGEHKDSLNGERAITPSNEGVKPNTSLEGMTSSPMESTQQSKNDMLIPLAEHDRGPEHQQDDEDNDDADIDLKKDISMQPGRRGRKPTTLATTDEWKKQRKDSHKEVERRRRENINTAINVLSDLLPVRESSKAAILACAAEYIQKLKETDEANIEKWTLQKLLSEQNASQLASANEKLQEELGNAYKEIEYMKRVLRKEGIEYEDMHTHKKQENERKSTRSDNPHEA
# Technique: competition protein-binding microarray
# Molecule type: double-stranded DNA, one strand shown
# Medium: in vitro
# Tested at: 2 µM
# Notes: whole 60-bp probe, lowest competitor level
# Together with: Pho4 competitor, 0.05 µM
# Direction: higher = stronger binding
# Shared flanks, not repeated: … GTCTTGATTCGCTTGACGCTGCTG
Strand,fluorescence intensity [a.u.]
CTTTCTGCCTTGGAAGGCGTGATGGTGATGGTACAT,117
CGGGGTTAAGTTTGCCCGGTGGGTGGCTTGCAGCAG,58.4
AAATTACTAAGTTTTCACGTGGCATACCCCGTATGA,859
CTTCTGTAAATTTGCGAGGTGGGTGGACGCGCCCCG,85.1
CTAACGAAGGTTTGACTAGTGGGTGACAAGCCAAGT,66.2
GTCTTGTCTCATTGGGCAGTGGGTGTCCCCACTTCA,78
GTCGACCATTTTGCCACCGTGTCTGTGTGCTCGAGC,70.5
GGGCTTCAGAAAAAAGGCGTGCGATGTGTAGATGTA,79.5
GTCTTGTCTCATTTTCACGTGAGATTCCCCACTTCA,689
CTGCTTGGCGTATGGGGCGTGCAAATAACTGTTCAT,122
TTAACATAATTAAAGCACGCAGCGATTGGGTATAAT,77
TCACTAAATTAGCTGCATGTGCGTTAAATCCACCAA,157
ATTCCTGTTCCGGGACAAGTGCTACAACTGACCTTA,54.4
ATTATACAACAAACACACGTTAAGAGACGCAAACGG,78.9
ACAAGTGCCGACTGACTCGTGTCCTGGTAATAACAG,110
ATGCCATGGGTGTCTCATGTGGTCCAGTGAGTTGAT,76.2
GAAACAGAACTCGCTGATGTGATATTCACCATTCCA,76.5
GATACGCTCCTTGGCCTCGTGGTGATGCGCCAAAAC,68.6
CAGTAACAGGTACAGCACGTGCAAAATCAGGATGAC,1830
CCTTGAATGATAAAACACGTTAAAGTTTCTAGATCA,93.1
GTCTACAGCGTACTTCACGTTGTTCTCCTGAGGCAG,79.5
AATACCCTGGCATCTCTCGTGACGGGTTACCATTTA,145

# Block 2
# Target: Histone acetyltransferase KAT6A, both winged helices, GST fusion (KAT6A, Homo sapiens, UniProt Q92794, residues 1-181)
# Technique: protein binding microarray
# Molecule type: double-stranded DNA, one strand shown
# Medium: in vitro
# Tested at: not given
# Notes: 8-mer, flanks averaged, mean of 2 arrays, mostly near background
# Baseline: not given
# Direction: higher = stronger binding
# Target sequence (chain): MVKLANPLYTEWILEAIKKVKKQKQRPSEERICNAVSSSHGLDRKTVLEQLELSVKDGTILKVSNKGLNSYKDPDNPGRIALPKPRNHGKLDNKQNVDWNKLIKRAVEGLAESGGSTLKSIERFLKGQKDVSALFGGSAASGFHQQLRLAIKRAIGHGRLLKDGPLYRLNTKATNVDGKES
Strand,E-score
GGTAGCCA,-0.0486
CGGGGTTC,0.218
ACATGTGA,-0.0465
AGATTGTG,-0.0897
GCCAGAGC,-0.0318
AATCGATC,-0.11
AGTCCTAA,0.061
GCGCTTAA,0.199
CATCTGTA,0.0478
GTTTCTGA,-0.0258
ACAAGCGC,0.313
TATCTTAA,-0.0763
AGCGTTGG,-0.0575
ATTGACGA,0.0589
GTGCCCAA,-0.0328
ACGTGACC,-0.0722
CCAAGCTC,-0.155
CCTAGTTC,-0.223
ATCACTGC,0.00648
ATCTTTAA,0.0554
CACCAATA,-0.147

# Block 3
# Target: ABI1, truncated, D143A, DHFR fusion (Arabidopsis thaliana)
# Technique: DHFR PCA, deep sequencing
# Medium: yeast
# Notes: methotrexate growth selection, single substitutions
# Together with: (+)-ABA 200 µM
# Baseline: wild-type fitted maximum
# Direction: higher = stronger binding
# Starting sequence: PYL1, truncated, DHFR fusion (Arabidopsis thaliana); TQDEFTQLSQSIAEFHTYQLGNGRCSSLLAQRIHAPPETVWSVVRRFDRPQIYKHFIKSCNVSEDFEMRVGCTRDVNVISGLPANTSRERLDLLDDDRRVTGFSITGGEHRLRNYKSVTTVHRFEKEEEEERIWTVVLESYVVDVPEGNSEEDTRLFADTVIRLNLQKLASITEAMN
Substitution,relative binding score [%]
V62A,80.6
L82K,3.37
D144V,52.5
A13Y,87.6
N77G,101
E109F,66.5
L138I,83.5
P37S,81.5
E128H,103
K116Y,38.5
N165V,0.247
F124I,109
N77K,106
E125D,99.7
Q51C,105
L20H,98

# Block 4
# Target: Interferon regulatory factor 5, full length, phosphomimetic (IRF5, Homo sapiens, UniProt Q13568-2, residues 1-514, S451D/S453D/S456D/S462D)
# Technique: protein-binding microarray
# Molecule type: double-stranded DNA, one strand shown
# Medium: in vitro
# Tested at: 940 nM top
# Notes: 60-bp whole probe
# Together with: salmon DNA 0.4 mg/ml
# Baseline: random background probes
# Direction: higher = stronger binding
# Shared flanks, not repeated: GCCTAGCAC … GTCTTGATTCGCTTGACGCTGCTG
Strand,fitted relative affinity [z-score]
CGGCCTCTAGGTTTTCTGAAGTGCTAG,-0.388
TTAGGTTTCGGGTATAGGTTAGTGCTA,10.5
GACGGTATCGGTTTTGGGACGTGCTAG,7.65
GACGATCTCAGTATCGAGTCGTGCTAG,3.47
TTAAGTTTCCTACTGCTTTAGTGCTAG,1.08
TTAGATTTCGGGACTTGATTAGTGCTA,0.414
GACGGACTGCTCCTGCTGACGTGCTAG,-0.718
GACGGTTTCGACCATCGGGACGTGCTA,7.07
TTAGGTTTCGGACTGGGTGAGTGCTAG,7.78
CCCATTCCAGGGTTTTATGGAGTGCTA,-0.351
CAATATTTGCAACATCCCAATGTGCTA,0.659
GACGGTATCGGCCTGGGGACGTGCTAG,4.28
GACGGTTTCCCTTTCCTGACGTGCTAG,2.66
TTGGAACTGGGGTTTCGATTAGTGCTA,4.92
TTAGATTTCGGGTATCCATTAGTGCTA,1.43
TCATGCTTTCATTTATTACTGTGCTAG,1.66
GACGATCTGAGTTTCGAGACGTGCTAG,3.35
GACGATATCAGACTGGCGACGTGCTAG,-0.233
TACGGACTGGGACTGGGGACGTGCTAG,-0.479
TTAGGTTTCGAGTATCGGTTAGTGCTA,8.41
GACGGTTTCGGTTTAGGGACGTGCTAG,12.8
GACGGTCTCCTTCGCCTGACGTGCTAG,0.149
GATGAATAAAGCGTTGCTGCGTGCTAG,-0.437
GACGGTATCGGGACTCGGGACGTGCTA,3.13
GACGGTATCGGCTATCGGGACGTGCTA,5.06

# Block 5
# Target: CCNA1, cyclin fold, Cln2 fusion (human)
# Technique: yeast growth competition, sequencing
# Medium: yeast
# Notes: weak parent motif
# Baseline: not given
# Direction: higher = stronger binding
# Starting sequence: CDKN1A docking peptide (human); SKACRRLFGPVDS; partner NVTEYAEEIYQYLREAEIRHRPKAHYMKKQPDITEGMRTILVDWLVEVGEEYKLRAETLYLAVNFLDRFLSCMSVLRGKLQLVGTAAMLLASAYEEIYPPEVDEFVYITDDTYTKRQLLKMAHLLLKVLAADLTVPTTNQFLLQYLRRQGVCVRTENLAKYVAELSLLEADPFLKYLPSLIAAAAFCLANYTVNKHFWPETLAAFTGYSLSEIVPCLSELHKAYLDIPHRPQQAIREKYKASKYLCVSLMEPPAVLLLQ
Substitution,normalised enrichment score
D12W,0.0618
V11Q,0.64
F8G,0.204
D12Y,0.318
A3N,-0.648
A3Q,0.0342
F8P,-0.157
P10L,-0.101
R5G,0.0338
R5M,-0.00292
P10V,-0.0495
G9A,0.661
V11T,1.03
V11Y,0.7
L7I,0.137
V11H,0.301
F8D,0.201
R6W,-0.286
R6C,0.401

# Block 6
# Target: Sal-like protein 4, full length isoform A (SALL4, Homo sapiens, UniProt Q9UJQ4, residues 1-1053)
# Chain of UniProt Q9UJQ4 (whole entry, looked up): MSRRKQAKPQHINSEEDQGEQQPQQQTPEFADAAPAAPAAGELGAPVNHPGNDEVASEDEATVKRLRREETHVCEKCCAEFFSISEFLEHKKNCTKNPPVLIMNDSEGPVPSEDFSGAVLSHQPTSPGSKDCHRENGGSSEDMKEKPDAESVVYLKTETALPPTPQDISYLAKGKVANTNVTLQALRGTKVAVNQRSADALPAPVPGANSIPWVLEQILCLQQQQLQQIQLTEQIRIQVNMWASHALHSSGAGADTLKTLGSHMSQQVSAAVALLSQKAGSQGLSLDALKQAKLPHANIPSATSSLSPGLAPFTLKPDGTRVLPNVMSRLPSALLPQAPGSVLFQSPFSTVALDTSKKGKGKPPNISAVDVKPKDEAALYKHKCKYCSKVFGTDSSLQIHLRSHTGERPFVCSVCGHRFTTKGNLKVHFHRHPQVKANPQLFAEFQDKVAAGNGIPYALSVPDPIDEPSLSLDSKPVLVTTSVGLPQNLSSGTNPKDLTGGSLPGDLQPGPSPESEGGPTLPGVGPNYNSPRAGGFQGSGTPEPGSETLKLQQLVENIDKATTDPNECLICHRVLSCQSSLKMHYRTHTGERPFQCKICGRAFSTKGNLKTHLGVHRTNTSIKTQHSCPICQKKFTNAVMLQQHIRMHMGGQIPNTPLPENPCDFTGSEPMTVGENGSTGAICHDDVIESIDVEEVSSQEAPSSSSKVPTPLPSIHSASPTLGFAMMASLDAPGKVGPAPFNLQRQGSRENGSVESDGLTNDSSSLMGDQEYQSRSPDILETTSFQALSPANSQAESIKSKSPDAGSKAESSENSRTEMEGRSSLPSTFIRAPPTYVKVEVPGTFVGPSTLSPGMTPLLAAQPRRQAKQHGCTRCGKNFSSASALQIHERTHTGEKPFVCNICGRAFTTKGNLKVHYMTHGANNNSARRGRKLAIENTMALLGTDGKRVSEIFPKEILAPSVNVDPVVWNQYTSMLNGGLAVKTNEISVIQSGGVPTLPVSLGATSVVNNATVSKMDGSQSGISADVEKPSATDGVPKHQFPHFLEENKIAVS
# Technique: universal PBM
# Molecule type: double-stranded DNA, one strand shown
# Medium: in vitro
# Tested at: 600 nM
# Notes: 8-mer, flanks averaged, mean of replicates
# Direction: higher = stronger binding
Strand,E-score
AGCGATTG,-0.0543
AGTCTGTC,-0.0829
CCTAGTGA,-0.258
ATGTTAAG,0.18
CGCTTGCA,-0.0256
AAGGGTGC,-0.202
ACGCCGGG,-0.317
ATTAAGAG,0.164
CTATAGTC,0.143
CGGTGAGA,-0.168
ACCTTAGG,-0.19
CTCCAGGA,-0.194
AGTGTCGG,-0.213
TCTATAAA,0.364
CCAGGTTC,-0.295
CACCCGCA,-0.205
AGGAAACT,-0.0261
CATTTCGC,0.0595
CCGCCCCA,-0.198
AAAGGGCC,-0.263

# Some of these lines once more (block 3):
Substitution,relative binding score [%]
L82K,3.37
P37S,81.5
A13Y,87.6
Q51C,105
N77G,101
E125D,99.7
L138I,83.5
L20H,98
N165V,0.247
K116Y,38.5
N77K,106
